Experimental data from different studies.
Each numbered part is a random draw from the data of one study; scales do not carry over between parts. Changes are numbered by the printed parent chain.

Set 1
Target: Interferon regulatory factor 5, full length, phosphomimetic (IRF5, Homo sapiens, UniProt Q13568-2, residues 1-514, S451D/S453D/S456D/S462D)
Technique: protein-binding microarray
Form: double-stranded DNA, one strand shown
Matrix: in vitro
Concentration: 940 nM top
Setting: 60-bp whole probe
Together with: salmon DNA 0.4 mg/ml
Reference: random background probes
Direction: higher = stronger binding
Measurement: fitted relative affinity
Shared flanks, not repeated: GCCTAGCAC … GTCTTGATTCGCTTGACGCTGCTG
GATGGACTGGGTTTCGGGACGTGCTAG: 2.57 z-score
TTAGATTTCAGTTTCTATTAGTGCTAG: 3.87 z-score
ATAGGTTTCGACTATCGGTTAGTGCTA: 8.7 z-score
TCATCATTGCATATAGAACTGTGCTAG: 0.13 z-score
GACGTTCTCCTTATCCTGACGTGCTAG: 1.22 z-score
GACGGTTTCGGTCTCGGCACGTGCTAG: 13.9 z-score
GACGATTTCAGTACCGAGACGTGCTAG: 0.177 z-score
GACGATCTCGGGTATCGAGACGTGCTA: 1.35 z-score

Set 2
Target: JDP2, bZIP domain (human)
Technique: DHFR protein complementation
Matrix: yeast
Setting: single substitutions, most at no-binding floor
Reference: wild-type JUN-FOS pair
Direction: higher = stronger binding
Measurement: binding fitness
Parent: JUN, bZIP domain (human); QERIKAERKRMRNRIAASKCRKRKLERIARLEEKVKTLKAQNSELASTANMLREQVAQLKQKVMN; partner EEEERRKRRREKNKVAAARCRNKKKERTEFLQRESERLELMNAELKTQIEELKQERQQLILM
L52I: 0.238 natural log
E32T: 0.202 natural log
I28F: 0.207 natural log
R53Y: 0.188 natural log
L31V: 0.167 natural log
M51C: 0.233 natural log
E54F: 0.124 natural log
K34A: 0.298 natural log

Set 3
Target: Ras GTPase-activating protein-binding protein 1, full length (G3BP1, Homo sapiens, UniProt Q13283)
UniProt Q13283, sequence (whole entry, looked up): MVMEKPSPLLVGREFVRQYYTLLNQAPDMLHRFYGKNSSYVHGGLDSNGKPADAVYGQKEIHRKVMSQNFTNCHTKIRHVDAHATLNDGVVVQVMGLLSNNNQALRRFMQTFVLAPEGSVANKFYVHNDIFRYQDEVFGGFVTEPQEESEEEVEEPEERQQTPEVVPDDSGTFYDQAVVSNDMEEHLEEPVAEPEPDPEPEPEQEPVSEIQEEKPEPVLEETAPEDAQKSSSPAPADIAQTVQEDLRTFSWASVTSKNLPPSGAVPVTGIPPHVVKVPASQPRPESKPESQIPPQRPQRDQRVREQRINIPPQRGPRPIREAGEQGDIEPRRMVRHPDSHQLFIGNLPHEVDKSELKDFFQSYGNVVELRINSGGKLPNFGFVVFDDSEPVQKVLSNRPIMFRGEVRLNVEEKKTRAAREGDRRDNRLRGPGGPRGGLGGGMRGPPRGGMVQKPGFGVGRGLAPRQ
Technique: RNA Bind-n-Seq
Form: RNA
Matrix: in vitro
Concentration: 200 nM
Setting: whole 134-nt RNA, ends assumed
Together with: 150 mM LiCl
Reference: input library
Direction: higher = stronger binding
Measurement: log2 enrichment
Each molecule: 7-deaza-guanosine replaces G
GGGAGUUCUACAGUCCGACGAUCUCCUGUGCUACACAUCGUAUGUACCGAAUCGGCCCCCCGGGCCCCCCGGCCCCCCGGGGAAAGUAUUAUGUUACGCCGUUCGGAUCUGCAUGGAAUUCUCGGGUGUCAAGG: -0.337
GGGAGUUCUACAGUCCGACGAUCCUGUGCUACACAUCGUAUGUACCGAAUCAAACCCCCCCAAACCCCCCCAAACCCCCCCAAAAAAGUAUUAUGUUACGCCGUUCGGAUCUGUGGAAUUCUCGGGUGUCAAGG: -0.856
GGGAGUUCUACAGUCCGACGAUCCCUGUGCUACACAUCGUAUGUACCGAAUCAAAUUUUUUUAAAUUUUUUUAAACCCCCAAAAAAGUAUUAUGUUACGCCGUUCGGAUCUGCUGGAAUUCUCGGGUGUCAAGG: 0.443
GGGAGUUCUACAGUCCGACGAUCAAGUCCUGUGCUACACAUCGUAUGUACCGAAUCGGGAGGGAAAGGGUUUUUUUGGGAAAGUAUUAUGUUACGCCGUUCGGAUCUGCACUUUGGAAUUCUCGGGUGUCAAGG: -0.617
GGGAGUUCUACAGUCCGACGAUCGCAGGAAGUAAAAACAAAUGGAAAUGCUUCGGAUAGGGGCAGGGGUGGGGGUUGCUAAGGAAAGGGUGGGAUGGGAGUGGGUAAAGAGUUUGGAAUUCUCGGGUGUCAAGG: -0.0934
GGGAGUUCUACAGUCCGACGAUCCACAGACAACACGCACCCACACAGACACAGAGGGAAGGGGUUGGGAUGGGGACAGGGUGCACAGCAGGGUGGGGUAGGACCCCAGCCCCUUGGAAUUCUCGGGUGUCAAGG: 0.492
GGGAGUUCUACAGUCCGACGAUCCUCAAGUCCUGUGCUACACAUCGUAUGUACCGAAUCGGCCGGGCCGGGCCGGGGAAAGUAUUAUGUUACGCCGUUCGGAUCUGCACUUCCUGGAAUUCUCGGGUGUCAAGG: 0.532
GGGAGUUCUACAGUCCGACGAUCCUGUGCUACACAUCGUAUGUACCGAAUCGGGGAAAAAAGGGAAAAAAGGGGAAAAAAGGGGAAAGUAUUAUGUUACGCCGUUCGGAUCUGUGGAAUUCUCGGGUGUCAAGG: 0.354

Other studies, line by line
Cc1nn(C(C)(C)C)c(C)c1S(=O)(=O)N1CC(C)OC(C)(C)C1 (stereo not shown) — remaining compound (human, microsomes or S9; 2 µM, 0.5 h): 0.0276%

Some of these lines once more (set 2):
R53Y: 0.188 natural log
L31V: 0.167 natural log
